Assay results from different studies.
Each numbered part is a random draw from the data of one study; scales do not carry over between parts.
Chain of UniProt Q56UN5 (whole entry, looked up): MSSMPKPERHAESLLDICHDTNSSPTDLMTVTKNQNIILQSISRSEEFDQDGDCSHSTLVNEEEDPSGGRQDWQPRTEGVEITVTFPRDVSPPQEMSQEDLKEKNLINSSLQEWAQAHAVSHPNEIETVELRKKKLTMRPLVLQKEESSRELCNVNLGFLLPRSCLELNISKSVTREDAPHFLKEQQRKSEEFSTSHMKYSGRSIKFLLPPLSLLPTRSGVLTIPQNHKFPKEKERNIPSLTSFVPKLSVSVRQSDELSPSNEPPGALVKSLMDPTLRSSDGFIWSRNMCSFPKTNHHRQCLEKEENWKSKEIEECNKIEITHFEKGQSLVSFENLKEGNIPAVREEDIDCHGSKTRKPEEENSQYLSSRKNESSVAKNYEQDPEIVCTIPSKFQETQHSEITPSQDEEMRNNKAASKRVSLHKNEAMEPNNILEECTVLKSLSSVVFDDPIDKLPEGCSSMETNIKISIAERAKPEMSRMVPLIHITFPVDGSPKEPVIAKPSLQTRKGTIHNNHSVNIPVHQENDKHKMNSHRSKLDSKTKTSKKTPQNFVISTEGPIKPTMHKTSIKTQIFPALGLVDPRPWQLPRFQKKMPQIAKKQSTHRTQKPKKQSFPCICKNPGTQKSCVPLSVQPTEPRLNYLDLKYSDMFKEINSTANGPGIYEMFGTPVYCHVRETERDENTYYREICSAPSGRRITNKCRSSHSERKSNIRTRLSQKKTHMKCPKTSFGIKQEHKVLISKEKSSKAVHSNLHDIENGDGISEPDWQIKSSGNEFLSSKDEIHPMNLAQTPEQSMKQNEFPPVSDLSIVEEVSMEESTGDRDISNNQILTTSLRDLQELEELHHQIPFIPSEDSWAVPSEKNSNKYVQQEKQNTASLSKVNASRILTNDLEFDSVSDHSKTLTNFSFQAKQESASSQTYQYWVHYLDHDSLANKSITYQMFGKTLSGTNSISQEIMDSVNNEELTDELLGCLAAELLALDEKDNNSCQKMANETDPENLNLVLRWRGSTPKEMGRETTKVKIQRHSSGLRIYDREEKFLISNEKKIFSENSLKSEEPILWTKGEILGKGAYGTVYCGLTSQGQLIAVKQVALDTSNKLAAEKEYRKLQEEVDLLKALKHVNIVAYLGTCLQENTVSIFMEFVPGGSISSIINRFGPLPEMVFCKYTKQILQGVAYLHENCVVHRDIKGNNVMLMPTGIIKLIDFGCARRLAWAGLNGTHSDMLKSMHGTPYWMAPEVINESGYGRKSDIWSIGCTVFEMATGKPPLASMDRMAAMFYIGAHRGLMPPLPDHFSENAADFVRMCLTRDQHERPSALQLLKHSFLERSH
Chain of UniProt Q13233 (whole entry, looked up): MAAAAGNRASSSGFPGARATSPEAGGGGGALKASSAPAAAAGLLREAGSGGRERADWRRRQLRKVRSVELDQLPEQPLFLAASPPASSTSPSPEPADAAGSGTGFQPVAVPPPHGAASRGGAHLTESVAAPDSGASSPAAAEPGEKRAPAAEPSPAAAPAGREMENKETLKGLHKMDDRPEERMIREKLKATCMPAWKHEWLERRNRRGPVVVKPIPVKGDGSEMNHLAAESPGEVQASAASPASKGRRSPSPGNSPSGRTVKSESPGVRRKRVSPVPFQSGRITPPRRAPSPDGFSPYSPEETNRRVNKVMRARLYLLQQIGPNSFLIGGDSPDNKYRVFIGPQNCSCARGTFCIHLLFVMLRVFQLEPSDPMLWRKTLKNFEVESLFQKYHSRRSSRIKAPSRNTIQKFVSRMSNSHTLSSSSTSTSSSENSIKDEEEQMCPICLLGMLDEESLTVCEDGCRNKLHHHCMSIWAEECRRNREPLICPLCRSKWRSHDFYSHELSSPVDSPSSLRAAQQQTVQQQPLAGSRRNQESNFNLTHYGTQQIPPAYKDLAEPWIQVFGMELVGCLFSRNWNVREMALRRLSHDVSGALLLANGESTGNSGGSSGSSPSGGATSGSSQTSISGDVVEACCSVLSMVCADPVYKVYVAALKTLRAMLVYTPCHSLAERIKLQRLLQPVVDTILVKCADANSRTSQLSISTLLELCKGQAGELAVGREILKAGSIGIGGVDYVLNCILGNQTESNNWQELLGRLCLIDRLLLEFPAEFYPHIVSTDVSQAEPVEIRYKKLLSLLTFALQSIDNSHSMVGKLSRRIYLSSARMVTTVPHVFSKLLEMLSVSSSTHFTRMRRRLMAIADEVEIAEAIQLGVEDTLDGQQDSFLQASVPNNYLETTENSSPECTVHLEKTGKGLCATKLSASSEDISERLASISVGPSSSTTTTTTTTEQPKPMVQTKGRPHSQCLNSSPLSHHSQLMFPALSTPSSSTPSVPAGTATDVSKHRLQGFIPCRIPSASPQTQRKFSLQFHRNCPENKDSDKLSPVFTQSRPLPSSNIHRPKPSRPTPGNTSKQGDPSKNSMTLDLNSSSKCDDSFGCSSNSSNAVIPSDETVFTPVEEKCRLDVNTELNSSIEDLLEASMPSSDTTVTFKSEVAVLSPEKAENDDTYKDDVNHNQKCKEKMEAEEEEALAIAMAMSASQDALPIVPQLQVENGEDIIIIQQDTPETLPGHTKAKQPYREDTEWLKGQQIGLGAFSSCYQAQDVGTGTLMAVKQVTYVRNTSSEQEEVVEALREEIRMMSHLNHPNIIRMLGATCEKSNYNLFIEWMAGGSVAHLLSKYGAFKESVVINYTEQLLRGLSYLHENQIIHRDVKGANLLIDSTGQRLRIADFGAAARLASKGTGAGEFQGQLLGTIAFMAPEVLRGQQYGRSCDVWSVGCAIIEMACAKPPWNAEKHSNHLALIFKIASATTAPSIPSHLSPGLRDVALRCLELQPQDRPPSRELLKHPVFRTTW
Chain of UniProt O95382 (whole entry, looked up): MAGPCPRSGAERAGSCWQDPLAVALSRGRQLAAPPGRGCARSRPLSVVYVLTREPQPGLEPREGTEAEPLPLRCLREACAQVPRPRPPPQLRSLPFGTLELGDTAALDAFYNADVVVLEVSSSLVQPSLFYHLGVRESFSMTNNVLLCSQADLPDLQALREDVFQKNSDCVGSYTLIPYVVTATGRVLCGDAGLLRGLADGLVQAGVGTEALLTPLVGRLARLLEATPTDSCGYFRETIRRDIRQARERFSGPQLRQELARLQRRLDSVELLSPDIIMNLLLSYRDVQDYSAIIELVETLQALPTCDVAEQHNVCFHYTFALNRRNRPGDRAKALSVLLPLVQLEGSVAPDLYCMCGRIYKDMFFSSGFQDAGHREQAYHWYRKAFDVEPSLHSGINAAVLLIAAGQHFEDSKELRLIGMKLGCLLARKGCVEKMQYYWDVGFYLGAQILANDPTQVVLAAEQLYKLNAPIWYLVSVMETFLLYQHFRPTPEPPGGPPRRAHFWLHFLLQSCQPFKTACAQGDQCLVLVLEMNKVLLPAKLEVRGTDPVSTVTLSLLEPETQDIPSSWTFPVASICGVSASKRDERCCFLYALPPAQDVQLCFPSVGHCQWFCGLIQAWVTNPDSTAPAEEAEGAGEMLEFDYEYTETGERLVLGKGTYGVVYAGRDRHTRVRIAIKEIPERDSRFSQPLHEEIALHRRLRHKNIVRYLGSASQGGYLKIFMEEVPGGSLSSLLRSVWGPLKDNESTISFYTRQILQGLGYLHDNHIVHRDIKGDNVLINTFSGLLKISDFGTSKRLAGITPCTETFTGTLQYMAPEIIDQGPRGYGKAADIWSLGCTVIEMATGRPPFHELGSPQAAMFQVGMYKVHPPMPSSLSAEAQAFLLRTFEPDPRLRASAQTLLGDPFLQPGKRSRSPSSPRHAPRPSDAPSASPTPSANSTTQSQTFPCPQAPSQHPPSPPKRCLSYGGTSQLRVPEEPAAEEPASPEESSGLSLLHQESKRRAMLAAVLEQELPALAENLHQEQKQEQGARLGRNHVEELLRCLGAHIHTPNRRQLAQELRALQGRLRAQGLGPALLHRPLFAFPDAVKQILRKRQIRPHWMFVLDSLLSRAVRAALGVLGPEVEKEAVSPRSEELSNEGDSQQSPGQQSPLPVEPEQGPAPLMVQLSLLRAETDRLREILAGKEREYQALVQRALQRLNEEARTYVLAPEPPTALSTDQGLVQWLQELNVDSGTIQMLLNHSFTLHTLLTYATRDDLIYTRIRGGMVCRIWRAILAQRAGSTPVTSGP

Series 1
Organism: Sarcocystis neurona
Read-out: parasite growth
Concentration: 10 µM
Time: 96 h
Setting: second screen
Relative to: untreated
Endpoint: log2 fold change
COc1ccc2c(c1)c(CC(=O)O)c(C)n2C(=O)c1ccc(Cl)cc1: -0.08
COC(=O)C1=C(C)NC(C)=C(C(=O)OCC(C)C)C1c1ccccc1[N+](=O)[O-] (stereo not drawn): 0.38
COc1cc2c(cc1OC)C(=O)C(CC1CCN(Cc3ccccc3)CC1)C2 (stereo not drawn): 0.63
Cc1c(O)cccc1C(=O)N[C@@H](CSc1ccccc1)[C@H](O)CN1C[C@H]2CCCC[C@H]2C[C@H]1C(=O)NC(C)(C)C: -1.09
CN(C)CCCN1c2ccccc2CCc2ccc(Cl)cc21: 0.46
Cc1ccc(C)c(OCCCC(C)(C)C(=O)O)c1: 0.21

Series 2
Cell line: HaCaT
Concentration: 100 µM
Time: 18 h
Endpoint: viability
Cc1nnc(NS(=O)(=O)c2ccc(N)cc2)s1: 95.3%
Cc1cnc(C(=O)N[C@H]2CCCCC/C=C\[C@@H]3C[C@@]3(C(=O)NS(=O)(=O)C3CC3)NC(=O)[C@@H]3C[C@@H](Oc4nc5ccccc5c5ccccc45)CN3C2=O)cn1: 24.7%
Cc1nc2n(c(=O)c1CCN1CCC(c3noc4cc(F)ccc34)CC1)CCCC2O (stereo not drawn): 112%
O[C@H]1[C@H](O)[C@@H](O)[C@H](O)[C@@H](O)[C@H]1O: 113%
COC1=CC(=O)C[C@@H](C)[C@]12Oc1c(Cl)c(OC)cc(OC)c1C2=O: 88.4%
COCCCC/C(=N\OCCN)c1ccc(C(F)(F)F)cc1: 39.5%
Nc1nc(NC2CC2)c2ncn([C@H]3C=C[C@@H](CO)C3)c2n1: 96.1%

Series 3
SMILES: CC1=C(C#N)C(c2ccc3c(c2)c(NC(=O)c2ccccc2C)nn3C)C(C#N)=C(C)N1
Concentration: 1 µM
Endpoint: remaining binding
TXK (Homo sapiens, UniProt P42681); binding, competition with immobilised ligand: 100%
DYRK1B (Homo sapiens, UniProt Q9Y463); cell-free assay, competition with immobilised ligand: 63%
NEK5 (Homo sapiens, UniProt Q6P3R8); cell-free assay, competition with immobilised ligand: 100%
EGFR (Homo sapiens, UniProt P00533, L858R); cell-free assay, competition with immobilised ligand: 80%
FLT3 (Homo sapiens, UniProt P36888, D835V/ITD); cell-free assay, competition with immobilised ligand: 76%
MELK (Homo sapiens, UniProt Q14680); cell-free assay, competition with immobilised ligand: 81%
BMP2K (Homo sapiens, UniProt Q9NSY1); cell-free assay, competition with immobilised ligand: 100%
MAP3K6 (Homo sapiens, UniProt O95382); cell-free assay, competition with immobilised ligand: 71%
SRPK1 (Homo sapiens, UniProt Q96SB4); cell-free assay, competition with immobilised ligand: 89%
CDC42BPB (Homo sapiens, UniProt Q9Y5S2); cell-free assay, competition with immobilised ligand: 100%
DMPK (Homo sapiens, UniProt Q09013); cell-free assay, competition with immobilised ligand: 99%
AAK1 (Homo sapiens, UniProt Q2M2I8); binding: 90%
SIK2 (Homo sapiens, UniProt Q9H0K1); cell-free assay, competition with immobilised ligand: 93%
EPHA7 (Homo sapiens, UniProt Q15375); cell-free assay, competition with immobilised ligand: 100%
FLT3 (Homo sapiens, UniProt P36888, D835H); cell-free assay, competition with immobilised ligand: 99%
MAP3K19 (Homo sapiens, UniProt Q56UN5); cell-free assay, competition with immobilised ligand: 82%
MARK4 (Homo sapiens, UniProt Q96L34); cell-free assay, competition with immobilised ligand: 94%
BMPR2 (Homo sapiens, UniProt Q13873); cell-free assay, competition with immobilised ligand: 79%
Tyrosine-protein kinase ABL1, non-phosphorylated (ABL1, Homo sapiens, UniProt P00519, F317L); cell-free assay, competition with immobilised ligand: 97%
MAP3K1 (Homo sapiens, UniProt Q13233); cell-free assay, competition with immobilised ligand: 51%

Series 4
SMILES: C=CCc1ccc(O)c(-c2cc(CC=C)ccc2O)c1
Read-out: chloride current
Technique: whole-cell voltage clamp
Endpoint: IC50
ANO1 del476-501/M544I: Anoctamin-1 (ANO1, Homo sapiens, UniProt Q5XXA6, del476-501/M544I)
Chain of UniProt Q5XXA6 (whole entry, unmodified, looked up): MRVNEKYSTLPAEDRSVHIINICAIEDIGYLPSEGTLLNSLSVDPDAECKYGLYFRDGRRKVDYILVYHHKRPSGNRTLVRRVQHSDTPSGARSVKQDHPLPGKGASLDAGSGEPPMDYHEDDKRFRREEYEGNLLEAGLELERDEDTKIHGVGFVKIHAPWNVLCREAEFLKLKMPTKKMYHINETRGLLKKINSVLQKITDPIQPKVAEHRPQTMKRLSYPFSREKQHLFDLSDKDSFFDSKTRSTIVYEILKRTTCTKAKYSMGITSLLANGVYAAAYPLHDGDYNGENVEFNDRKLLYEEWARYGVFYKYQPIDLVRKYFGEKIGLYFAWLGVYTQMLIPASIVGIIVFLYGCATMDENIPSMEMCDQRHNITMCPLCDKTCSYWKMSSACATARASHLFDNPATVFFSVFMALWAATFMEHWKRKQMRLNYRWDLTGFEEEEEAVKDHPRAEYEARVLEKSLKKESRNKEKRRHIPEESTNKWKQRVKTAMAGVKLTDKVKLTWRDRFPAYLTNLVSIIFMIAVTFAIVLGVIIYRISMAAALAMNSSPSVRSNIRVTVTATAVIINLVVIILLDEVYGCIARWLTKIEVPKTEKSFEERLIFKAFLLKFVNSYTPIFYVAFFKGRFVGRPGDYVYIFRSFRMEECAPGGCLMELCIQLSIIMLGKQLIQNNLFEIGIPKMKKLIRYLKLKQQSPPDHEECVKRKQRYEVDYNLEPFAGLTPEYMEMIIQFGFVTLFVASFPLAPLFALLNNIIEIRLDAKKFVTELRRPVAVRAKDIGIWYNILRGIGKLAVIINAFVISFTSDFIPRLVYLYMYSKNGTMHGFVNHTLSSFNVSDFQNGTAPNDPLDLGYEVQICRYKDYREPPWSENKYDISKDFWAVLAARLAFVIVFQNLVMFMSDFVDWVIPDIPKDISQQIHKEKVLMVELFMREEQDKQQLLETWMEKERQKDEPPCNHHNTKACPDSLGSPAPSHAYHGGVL
ANO1 del476-501/F807A: Anoctamin-1 (ANO1, Homo sapiens, UniProt Q5XXA6, del476-501/F807A)
Anoctamin-1 (ANO1, Homo sapiens, UniProt Q5XXA6, D383A/del476-501); membrane voltage 80 mV: 32.2 µM
Anoctamin-1 (ANO1, Homo sapiens, UniProt Q5XXA6, del476-501/F646A); membrane voltage -80 mV: 24 µM
ANO1 del476-501/M544I; inhibitor; 40 mV holding voltage: 228 µM
ANO1 del476-501/M544I; inhibitor; 80 mV holding voltage: 190 µM
Anoctamin-1 (ANO1, Homo sapiens, UniProt Q5XXA6, del476-501); membrane voltage 100 mV, added: 300 nM Ca2+: 30.6 µM
Anoctamin-1 (ANO1, Homo sapiens, UniProt Q5XXA6, del476-501/R541D); inhibitor; R515D mutant at 100 mV: 187 µM
ANO1 del476-501/F807A; membrane voltage 80 mV: 20 µM
ANO1 del476-501/F807A; membrane voltage 100 mV: 21.3 µM
Anoctamin-1 (ANO1, Homo sapiens, UniProt Q5XXA6, del476-501/L548A); membrane voltage -80 mV: 47.4 µM

For quick reference, copied from above (series 3):
MAP3K6 (Homo sapiens, UniProt O95382); cell-free assay, competition with immobilised ligand: 71%
SRPK1 (Homo sapiens, UniProt Q96SB4); cell-free assay, competition with immobilised ligand: 89%
CDC42BPB (Homo sapiens, UniProt Q9Y5S2); cell-free assay, competition with immobilised ligand: 100%
DMPK (Homo sapiens, UniProt Q09013); cell-free assay, competition with immobilised ligand: 99%
AAK1 (Homo sapiens, UniProt Q2M2I8); binding: 90%
SIK2 (Homo sapiens, UniProt Q9H0K1); cell-free assay, competition with immobilised ligand: 93%
